Measurements of several laboratories.
Organism: Schistosoma mansoni

Fc1cc(F)c(-c2c(Cl)nc(-c3cccs3)nc2N2CCCOCC2)c(F)c1
EC50 (worm motility; adult worms ex vivo; 24 h): 910 nM

CN1CCCN(c2ncc(-c3ccc4nncc(Nc5cnccn5)c4c3)cn2)CC1
phenotypic severity score (adult worms; 10 µM, 48 h; direction not given): 0

CC1(C)NC(=O)N(c2ccc(F)c(Br)c2)C1=O
worm burden reduction (juvenile, infected mice; oral, 100 mg/kg single dose): 29%

CC1=C(Cn2cc(C(C)(C)O)nn2)C(=O)c2ccccc2C1=O
killing (adult worms; 10 µM, 48 h): 40.8%

COc1cc(F)c(-c2c(Cl)nc(-c3cccs3)nc2NCC2(C)COC2)c(F)c1
EC50 (motility; adult worms, ex vivo; 24 h): 38 nM

CC1=C(Cn2cc(CO)nn2)C(=O)c2ccccc2C1=O
killing (adult worms; 10 µM, 48 h): 39.8%

COc1ccc(Nc2cnnc3cc(-c4ccc(S(=O)(=O)N5CCN(C)CC5)cc4)ccc23)cc1Cl
phenotypic severity score (adult worms; 10 µM, 24 h; direction not given): 4

Fc1cc(F)c(-c2c(Cl)nc(-c3cccs3)nc2NCc2cccnc2)c(F)c1
EC50 (worm motility; adult worms ex vivo; 24 h): 4520 nM

CC1=C(Cn2cc(CN3CCNCC3)nn2)C(=O)c2ccccc2C1=O
killing (adult worms; 25 µM, 48 h): 48.5%

CN1CCN(c2ncc(-c3ccc4nncc(Nc5ncccn5)c4c3)cn2)CC1
phenotypic severity score (adult worms; 10 µM, 48 h; direction not given): 1

Some of these lines once more:
COc1ccc(Nc2cnnc3cc(-c4ccc(S(=O)(=O)N5CCN(C)CC5)cc4)ccc23)cc1Cl
phenotypic severity score (adult worms; 10 µM, 24 h; direction not given): 4
